{"data": "Assay results from different studies", "note": "Compare with care: the assays were run in different laboratories. Numbers after ± are the reported error."}
{"SMILES": "N#CCNC(=O)c1ccc(C2CCCCC2)cc1", "assay": "liver microsome stability", "test system": "rat liver microsomes", "setting": "1 µM", "quantity": "hepatic clearance", "value": "52 mL/min/kg"}
{"SMILES": "O=S(=O)(N[C@H]1CCO[C@@H](C2c3ccc(F)cc3CCc3cc(F)ccc32)C1)c1ccc(OC(F)(F)F)cc1", "target or system": "D341", "assay": "immunoblot", "setting": "concentration not given, 72 h", "quantity": "total PARP level", "value": "decreased"}
{"SMILES": "CCC(=CCc1c(O)cc2c(c1O)C(=O)CC(c1ccccc1O)O2)CC (centres unmarked)", "target or system": "HeLa", "assay": "cell growth or viability, MTT", "setting": "60 µM, 48 h", "quantity": "inhibition", "value": "74.8%"}
{"SMILES": "Cn1ncc2cc(-c3cncc(Cl)c3N3CCC4(CCNC4=O)CC3)ccc21", "target or system": "LS174T", "assay": "gene expression, microarray, refers to: KANK1 mRNA", "setting": "concentration not given, 4 h", "scale": "baseline: untreated cells", "quantity": "log2 fold change", "value": 1.12}
{"SMILES": "CC12CCCC(NC(=O)c3ccc(F)cc3F)(C1)C1CC(C)(C)C1CC2 (centres unmarked)", "target or system": "HT-29", "assay": "cell growth or viability, CCK-8", "setting": "300 µM", "quantity": "inhibition", "value": "99.4%"}
{"SMILES": "Cc1ncsc1-c1ccc(C(C)NC(=O)C2CC(O)CN2C(=O)C(NC(=O)CCCCCCCCCCN2CCCC(Nc3ncc(Cl)c(Nc4ccccc4S(=O)(=O)C(C)C)n3)C2)C(C)(C)C)cc1 (centres unmarked)", "target or system": "22Rv1", "assay": "RNA-seq, refers to: TNRC6C mRNA", "setting": "concentration not given", "scale": "baseline: DMSO", "quantity": "log2 fold change", "value": -1.55}
{"SMILES": "CC(=O)N[C@@H](CC(=O)O)C(=O)N[C@@H](C)C(=O)N[C@@H](Cc1ccc(N)cc1)C(=O)N[C@@H](CC(=O)O)C(=O)COC(=O)c1c(C)cccc1C", "target or system": "THP-1 cells, LPS-primed", "assay": "pyroptosis, LDH release", "setting": "25 µM, LPS 1 µg/mL, 4 h, with: nigericin 5 µM, 2 h", "quantity": "cell lysis", "value": "85.4%"}
{"SMILES": "CCC(CC)Nc1ncc2c(/C=C/C(=O)N3CCC(OC)CC3)nn(Cc3cccc(C(F)(F)F)c3)c2n1", "target or system": "OE33", "assay": "cell growth or viability, resazurin", "setting": "5 days", "quantity": "EC50", "value": "> 30000 nM"}
{"SMILES": "CNS(=O)(=O)Nc1nccc(Cc2c(C)c3ccc(Oc4ncccc4F)cc3oc2=O)c1F", "target or system": "IMR-32", "assay": "cell viability", "setting": "7 days", "quantity": "IC50", "value": "41.8 nM"}
{"SMILES": "CC(C)C[C@@H](NC(=O)[C@H](C)NC(=O)CNC(=O)[C@@H](NC=O)C(C)C)C(=O)N[C@@H](C)C(=O)N[C@@H](C(=O)N[C@H](C(=O)N[C@@H](C(=O)N[C@@H](Cc1c[nH]c2ccccc12)C(=O)N[C@H](CC(C)C)C(=O)N[C@@H](Cc1c[nH]c2ccccc12)C(=O)N[C@H](CC(C)C)C(=O)N[C@@H](Cc1c[nH]c2ccccc12)C(=O)N[C@H](CC(C)C)C(=O)N[C@@H](Cc1c[nH]c2ccccc12)C(=O)NCCO)C(C)C)C(C)C)C(C)C", "target or system": "MCF7", "assay": "flow cytometry", "setting": "500 nM, 48 h", "quantity": "cells in G1 phase", "value": "65.4 ± 0.79%"}
{"SMILES": "O=C([O-])CN1CCN(CC(=O)[O-])CCN(CC(=O)NCC2CCC(C(=O)NC(Cc3ccc4ccccc4c3)C(=O)NCCCCC(NC(=O)NC(CCC(=O)O)C(=O)O)C(=O)O)CC2)CCN(CC(=O)[O-])CC1.[68Ga+3] (centres unmarked)", "target or system": "22Rv1", "setting": "2 h, efflux", "scale": "baseline: dose", "quantity": "cell retention", "value": "0.5 ± 0.15%"}
{"SMILES": "CN1CCCNC(=O)c2cccc(c2)C(=O)NCCCN(C)CCCNc2cccc3c2C(=O)c2cccc(c2C3=O)NCCC1", "target or system": "SAS", "assay": "RNA-Seq, refers to: GFM2 mRNA", "setting": "1 µM, 6 h", "scale": "baseline: untreated cells", "quantity": "log2 fold change", "value": -0.463}
{"SMILES": "COc1ccc(C2CC(=O)c3c(cc(O)c(CC=C(C)C)c3O)O2)cc1 (centres unmarked)", "target or system": "HeLa", "assay": "cell growth or viability, MTT", "setting": "0.781 µM, 48 h", "quantity": "inhibition", "value": "4.73%"}
{"SMILES": "CC(O)CNc1cc(=O)oc2ccccc12 (centres unmarked)", "target or system": "COS-7 (untransfected)", "setting": "500 µM, unit not given", "scale": "baseline: 3 µM ionomycin", "quantity": "calcium mobilisation signal", "value": "2.09 ± 0.62"}
{"SMILES": "O=C(C[Se]C(=O)C12CC3CC(CC(C3)C1)C2)Nc1cccc(C(F)(F)F)c1", "target or system": "NCI60 leukemia subpanel", "assay": "cell growth", "setting": "10 µM, 48 h, one-dose", "quantity": "mean growth percent", "value": "-7.4%"}
{"SMILES": "COc1cc(N2CCN(C(=O)CN)CC2)ccc1Nc1ncc(Cl)c(Nc2ccccc2P(C)(C)=O)n1", "target or system": "NCI-H3122", "assay": "CCK-8", "setting": "25 nM, 48 h", "quantity": "viability", "value": "76%"}
{"SMILES": "CC1CNCCN1C(=O)c1cn(C23CCCC(C)(CCC4C2CC4(C)C)C3)nn1 (centres unmarked)", "target or system": "HT-29", "assay": "cell growth or viability, CCK-8", "setting": "10 µM", "quantity": "inhibition", "value": "67.3%"}
{"SMILES": "CC(=O)N[C@@H](CC(=O)O)C(=O)N[C@H](C(=O)N[C@@H](CCC(=O)O)C(=O)N[C@H](C(=O)NCC(=O)N[C@@H](CCC(=O)O)C(=O)N[C@H](C(=O)O)C(C)C)[C@@H](C)O)C(C)C", "target or system": "HaCaT", "setting": "concentration not given, with: UVA", "quantity": "cells, SA-β-gal positive", "value": "decreased"}
{"SMILES": "CC(C)CC(=O)Nc1ccc(C2CCCCC2)cc1", "assay": "liver microsome stability", "test system": "rat liver microsomes", "setting": "1 µM", "quantity": "hepatic clearance", "value": "50 mL/min/kg"}
{"SMILES": "C[C@@H]1CC[C@@H]([C@](O)(CNCc2cccc(F)c2)COCc2ccccc2)[C@H](OCc2ccccc2)C1", "target or system": "A2780", "assay": "cell growth or viability, MTT", "setting": "30 µM, 72 h", "quantity": "inhibition", "value": "95.4%"}
{"note": "Repeated from above:"}
{"SMILES": "CC(=O)N[C@@H](CC(=O)O)C(=O)N[C@H](C(=O)N[C@@H](CCC(=O)O)C(=O)N[C@H](C(=O)NCC(=O)N[C@@H](CCC(=O)O)C(=O)N[C@H](C(=O)O)C(C)C)[C@@H](C)O)C(C)C", "target or system": "HaCaT", "setting": "concentration not given, with: UVA", "quantity": "cells, SA-β-gal positive", "value": "decreased"}
{"SMILES": "O=S(=O)(N[C@H]1CCO[C@@H](C2c3ccc(F)cc3CCc3cc(F)ccc32)C1)c1ccc(OC(F)(F)F)cc1", "target or system": "D341", "assay": "immunoblot", "setting": "concentration not given, 72 h", "quantity": "total PARP level", "value": "decreased"}
{"SMILES": "N#CCNC(=O)c1ccc(C2CCCCC2)cc1", "assay": "liver microsome stability", "test system": "rat liver microsomes", "setting": "1 µM", "quantity": "hepatic clearance", "value": "52 mL/min/kg"}
